Measurements collected from several papers.
A part holds a random share of what one study measured. Substitutions count along the parent as printed.
UniProt P54753, sequence (whole entry, looked up): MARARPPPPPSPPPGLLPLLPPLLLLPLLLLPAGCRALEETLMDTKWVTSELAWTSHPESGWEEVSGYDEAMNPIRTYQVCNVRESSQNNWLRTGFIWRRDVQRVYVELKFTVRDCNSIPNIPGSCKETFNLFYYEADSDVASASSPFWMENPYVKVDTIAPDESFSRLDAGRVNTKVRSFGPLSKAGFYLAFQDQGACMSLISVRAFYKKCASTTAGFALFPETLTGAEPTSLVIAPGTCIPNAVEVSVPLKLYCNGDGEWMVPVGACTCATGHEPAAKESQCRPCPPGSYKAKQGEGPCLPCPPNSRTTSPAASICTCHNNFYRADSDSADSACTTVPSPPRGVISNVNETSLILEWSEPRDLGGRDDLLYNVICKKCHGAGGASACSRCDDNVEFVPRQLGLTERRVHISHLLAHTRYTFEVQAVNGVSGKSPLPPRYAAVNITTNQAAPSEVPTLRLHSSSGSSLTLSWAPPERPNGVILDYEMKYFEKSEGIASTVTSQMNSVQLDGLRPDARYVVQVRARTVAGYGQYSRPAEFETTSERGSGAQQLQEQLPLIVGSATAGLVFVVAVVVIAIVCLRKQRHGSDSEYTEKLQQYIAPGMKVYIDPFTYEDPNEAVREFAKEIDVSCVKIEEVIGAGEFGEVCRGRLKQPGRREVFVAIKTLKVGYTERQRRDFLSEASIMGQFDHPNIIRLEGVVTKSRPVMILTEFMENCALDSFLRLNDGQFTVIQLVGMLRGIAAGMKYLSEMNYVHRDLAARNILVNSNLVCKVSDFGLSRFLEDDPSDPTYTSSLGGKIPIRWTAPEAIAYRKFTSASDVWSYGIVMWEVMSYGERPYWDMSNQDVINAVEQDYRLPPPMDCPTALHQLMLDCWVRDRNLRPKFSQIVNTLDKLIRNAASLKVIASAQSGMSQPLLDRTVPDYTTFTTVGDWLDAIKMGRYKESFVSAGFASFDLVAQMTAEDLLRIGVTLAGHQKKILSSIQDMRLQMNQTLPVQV
UniProt P11802, sequence (whole entry, looked up): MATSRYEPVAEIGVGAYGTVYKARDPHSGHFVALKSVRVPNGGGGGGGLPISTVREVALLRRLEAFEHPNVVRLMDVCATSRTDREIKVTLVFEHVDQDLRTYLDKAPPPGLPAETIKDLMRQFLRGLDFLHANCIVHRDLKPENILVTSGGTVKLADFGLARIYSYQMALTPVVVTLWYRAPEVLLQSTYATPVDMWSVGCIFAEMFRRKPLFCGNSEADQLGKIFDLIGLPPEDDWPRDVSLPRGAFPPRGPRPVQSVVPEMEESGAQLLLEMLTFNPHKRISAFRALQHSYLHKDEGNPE
UniProt O43353, sequence (whole entry, looked up): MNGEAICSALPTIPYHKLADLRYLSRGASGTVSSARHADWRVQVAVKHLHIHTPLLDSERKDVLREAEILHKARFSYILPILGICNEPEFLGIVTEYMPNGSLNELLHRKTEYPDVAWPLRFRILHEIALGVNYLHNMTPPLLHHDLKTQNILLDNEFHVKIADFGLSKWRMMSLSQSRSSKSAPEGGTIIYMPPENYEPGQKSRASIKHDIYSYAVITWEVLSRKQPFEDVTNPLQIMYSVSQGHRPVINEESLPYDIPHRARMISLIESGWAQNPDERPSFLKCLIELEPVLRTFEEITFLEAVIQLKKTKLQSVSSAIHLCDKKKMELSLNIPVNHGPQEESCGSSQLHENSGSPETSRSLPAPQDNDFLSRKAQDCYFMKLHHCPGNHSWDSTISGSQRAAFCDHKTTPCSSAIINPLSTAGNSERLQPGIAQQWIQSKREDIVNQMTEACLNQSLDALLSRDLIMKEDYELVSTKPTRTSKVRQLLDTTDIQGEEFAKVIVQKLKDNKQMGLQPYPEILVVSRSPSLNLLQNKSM
UniProt Q9Y4K4, sequence (whole entry, looked up): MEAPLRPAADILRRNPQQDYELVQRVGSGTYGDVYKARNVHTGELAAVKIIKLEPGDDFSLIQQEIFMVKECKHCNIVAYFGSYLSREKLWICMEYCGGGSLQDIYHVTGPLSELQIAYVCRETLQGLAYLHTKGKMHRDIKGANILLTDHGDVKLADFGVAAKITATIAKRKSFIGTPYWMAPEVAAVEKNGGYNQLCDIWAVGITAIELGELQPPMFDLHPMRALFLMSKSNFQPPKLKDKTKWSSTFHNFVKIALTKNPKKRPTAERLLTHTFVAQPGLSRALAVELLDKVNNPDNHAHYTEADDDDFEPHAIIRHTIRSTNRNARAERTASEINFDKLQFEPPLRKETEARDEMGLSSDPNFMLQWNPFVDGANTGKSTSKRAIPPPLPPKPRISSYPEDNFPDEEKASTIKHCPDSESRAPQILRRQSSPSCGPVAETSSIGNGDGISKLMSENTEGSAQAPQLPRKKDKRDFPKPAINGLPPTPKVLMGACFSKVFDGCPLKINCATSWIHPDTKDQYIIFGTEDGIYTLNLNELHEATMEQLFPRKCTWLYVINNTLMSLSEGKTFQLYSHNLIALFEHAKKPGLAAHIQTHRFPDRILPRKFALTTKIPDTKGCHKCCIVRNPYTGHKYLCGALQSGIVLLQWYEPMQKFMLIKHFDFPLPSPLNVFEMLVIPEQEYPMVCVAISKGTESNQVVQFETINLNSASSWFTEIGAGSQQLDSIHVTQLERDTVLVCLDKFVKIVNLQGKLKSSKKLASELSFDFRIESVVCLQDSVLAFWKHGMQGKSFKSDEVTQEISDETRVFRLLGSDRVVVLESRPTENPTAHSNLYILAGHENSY
UniProt Q6ZWH5, sequence (whole entry, looked up): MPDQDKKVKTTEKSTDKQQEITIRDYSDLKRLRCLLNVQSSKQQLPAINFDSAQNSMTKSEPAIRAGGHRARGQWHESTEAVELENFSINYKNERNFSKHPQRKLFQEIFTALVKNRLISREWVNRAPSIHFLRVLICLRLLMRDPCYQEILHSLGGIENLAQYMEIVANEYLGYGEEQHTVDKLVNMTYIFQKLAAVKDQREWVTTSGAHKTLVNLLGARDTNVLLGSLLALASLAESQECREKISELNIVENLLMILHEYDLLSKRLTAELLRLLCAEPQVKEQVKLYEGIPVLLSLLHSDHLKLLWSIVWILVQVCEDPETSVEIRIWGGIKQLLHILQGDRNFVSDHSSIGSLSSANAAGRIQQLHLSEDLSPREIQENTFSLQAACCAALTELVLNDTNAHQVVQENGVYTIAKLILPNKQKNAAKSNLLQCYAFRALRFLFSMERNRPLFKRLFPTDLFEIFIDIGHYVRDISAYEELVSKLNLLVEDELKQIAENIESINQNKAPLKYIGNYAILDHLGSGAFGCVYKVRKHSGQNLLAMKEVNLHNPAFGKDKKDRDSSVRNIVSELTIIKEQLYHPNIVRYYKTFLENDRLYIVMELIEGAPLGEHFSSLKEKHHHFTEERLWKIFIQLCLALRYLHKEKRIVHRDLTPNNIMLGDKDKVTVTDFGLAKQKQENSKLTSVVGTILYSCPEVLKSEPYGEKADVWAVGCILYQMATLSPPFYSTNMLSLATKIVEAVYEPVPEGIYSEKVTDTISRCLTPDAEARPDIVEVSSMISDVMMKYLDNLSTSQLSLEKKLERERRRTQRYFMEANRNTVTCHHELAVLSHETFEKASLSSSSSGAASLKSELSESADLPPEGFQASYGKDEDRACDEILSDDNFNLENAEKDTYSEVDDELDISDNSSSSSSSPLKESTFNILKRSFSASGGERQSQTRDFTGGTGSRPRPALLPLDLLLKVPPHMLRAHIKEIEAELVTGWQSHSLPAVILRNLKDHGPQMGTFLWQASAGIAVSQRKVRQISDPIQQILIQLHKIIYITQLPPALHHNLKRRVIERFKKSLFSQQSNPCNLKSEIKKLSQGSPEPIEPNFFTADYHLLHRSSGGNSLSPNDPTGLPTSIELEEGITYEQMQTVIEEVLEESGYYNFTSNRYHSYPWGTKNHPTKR
UniProt Q8NFD2, sequence (whole entry, looked up): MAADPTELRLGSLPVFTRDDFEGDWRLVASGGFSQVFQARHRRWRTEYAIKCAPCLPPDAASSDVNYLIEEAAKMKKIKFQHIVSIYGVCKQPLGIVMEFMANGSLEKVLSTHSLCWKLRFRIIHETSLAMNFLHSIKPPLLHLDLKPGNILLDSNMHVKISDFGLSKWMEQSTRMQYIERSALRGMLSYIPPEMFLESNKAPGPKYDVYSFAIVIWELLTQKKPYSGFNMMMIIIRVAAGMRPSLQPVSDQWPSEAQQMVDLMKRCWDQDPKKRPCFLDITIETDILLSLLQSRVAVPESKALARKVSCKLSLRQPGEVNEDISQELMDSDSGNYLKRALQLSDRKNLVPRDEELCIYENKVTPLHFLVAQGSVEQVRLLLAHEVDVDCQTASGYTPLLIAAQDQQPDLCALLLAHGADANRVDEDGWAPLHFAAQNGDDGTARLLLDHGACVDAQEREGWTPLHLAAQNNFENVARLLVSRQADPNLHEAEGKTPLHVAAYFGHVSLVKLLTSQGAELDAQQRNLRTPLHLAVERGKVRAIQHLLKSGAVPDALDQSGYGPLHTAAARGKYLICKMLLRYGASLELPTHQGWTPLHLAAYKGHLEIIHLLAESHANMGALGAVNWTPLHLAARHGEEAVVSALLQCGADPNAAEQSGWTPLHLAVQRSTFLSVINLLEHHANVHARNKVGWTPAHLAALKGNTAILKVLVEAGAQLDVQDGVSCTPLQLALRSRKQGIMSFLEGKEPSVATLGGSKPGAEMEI
UniProt O94768, sequence (whole entry, looked up): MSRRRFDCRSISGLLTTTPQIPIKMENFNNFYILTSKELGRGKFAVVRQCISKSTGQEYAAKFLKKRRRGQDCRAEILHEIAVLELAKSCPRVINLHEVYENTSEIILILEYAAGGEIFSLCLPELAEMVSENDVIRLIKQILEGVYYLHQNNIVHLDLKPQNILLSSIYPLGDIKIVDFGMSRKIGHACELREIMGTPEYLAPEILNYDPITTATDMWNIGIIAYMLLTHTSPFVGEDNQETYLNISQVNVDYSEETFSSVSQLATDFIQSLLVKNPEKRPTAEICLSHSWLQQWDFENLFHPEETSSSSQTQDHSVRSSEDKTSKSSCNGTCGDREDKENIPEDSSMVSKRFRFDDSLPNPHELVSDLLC

Block 1
Organism: Sarcocystis neurona
Read-out: parasite growth
Tested at: 10 µM
For O=C(O)COCCN1CCN(C(c2ccccc2)c2ccc(Cl)cc2)CC1 (centres unmarked), the inhibition was 21.6%.
With CC(C)(O)c1ccccc1CC[C@@H](SCC1(CC(=O)O)CC1)c1cccc(/C=C/c2ccc3ccc(Cl)cc3n2)c1 the inhibition was -29.7%.
Cc1c(C(=O)NN2CCCCC2)nn(-c2ccc(Cl)cc2Cl)c1-c1ccc(I)cc1 has an inhibition of 96.7%.
C[C@@H]1C[C@H]2[C@@H]3CCC4=CC(=O)C=C[C@]4(C)[C@@]3(F)[C@@H](O)C[C@]2(C)[C@H]1C(=O)CO gave an inhibition of 6.9%.

Block 2
Cell line: mouse MPNST tumor cells
Technique: high-content immunofluorescence imaging
Refers to: nuclear SOX9
Tested at: 10 µM
Time: 12 h
Notes: mean of 2 replicates
Baseline: DMSO control
Direction: higher = more nuclear SOX9
Under “nuclear SOX9 intensity”, CC[C@H]1OC(=O)[C@H](C)[C@@H](O[C@H]2C[C@@](C)(OC)[C@@H](O)[C@H](C)O2)[C@H](C)[C@@H](O[C@@H]2O[C@H](C)C[C@H](N(C)C)[C@H]2O)[C@](C)(OC)C[C@@H](C)C(=O)[C@H](C)[C@@H](O)[C@]1(C)O is recorded as 97.8 % of DMSO.
CCCCN1C[C@H](O)[C@@H](O)[C@H](O)[C@H]1CO: “nuclear SOX9 intensity” 92.2 % of DMSO.
CCCC[S+]([O-])c1sc2nc(-c3cccs3)cc(-c3ccccc3)c2c1N (centres unmarked): “nuclear SOX9 intensity” 107 % of DMSO.

Block 3
Technique: PRP chromatography estimate
Sample: 1,9-decadiene/PBS
pH: 7.4
CC(C)C[C@@H]1NC(=O)[C@H](Cc2cscn2)NC(=O)[C@H](CC(C)C)NC(=O)[C@H](C(C)C)NC(=O)[C@H](CC(C)C)NC(=O)[C@@H](CC(C)C)NC(=O)[C@H](CC(C)C)NC1=O has a logD of 1.1.
CC(C)C[C@@H]1NC(=O)[C@H](CC(C)C)NC(=O)[C@@H](C(C)C)NC(=O)[C@H](CC(C)C)NC(=O)[C@@H](Cc2cscn2)NC(=O)[C@H](Cc2cscn2)NC(=O)[C@H](CCC(=O)N2CCCC2)NC1=O gave a logD of -1.39.
With CC(C)C[C@@H]1NC(=O)[C@H](C)NC(=O)[C@H](CC(C)C)NC(=O)[C@@H](CC(C)C)NC(=O)[C@H](CC(C)C)NC(=O)[C@H](C(C)C)NC(=O)[C@H](CCC(=O)N2CCCC2)NC1=O the logD was -0.737.
For CC(C)C[C@@H]1NC(=O)[C@H](CC(C)C)NC(=O)[C@@H](CC(C)C)NC(=O)[C@H](CC(C)C)NC(=O)[C@@H](Cc2cscn2)NC(=O)[C@H](C)NC(=O)[C@H](CCC(=O)N2CCCC2)NC1=O, the logD was -1.43.

Block 4
SMILES: Cc1nc(Cc2cccc(C(F)(F)F)c2)sc1-c1ccc(C(N)=O)nc1
Read-out: cell-free assay
Technique: competition with immobilised ligand
Tested at: 1 µM
Tyrosine-protein kinase JAK1, JH2 (JAK1, Homo sapiens, UniProt P23458) — remaining binding: 92%.
Receptor-interacting serine/threonine-protein kinase 2 (RIPK2, Homo sapiens, UniProt O43353) — remaining binding: 100%.
Protein kinase C delta type (PRKCD, Homo sapiens, UniProt Q05655) — remaining binding: 79%.
For Fibroblast growth factor receptor 2 (FGFR2, Homo sapiens, UniProt P21802): remaining binding read 100%.
It gave 100% for remaining binding (Cyclin-dependent kinase 5 (CDK5, Homo sapiens, UniProt Q00535)).
Membrane-associated tyrosine- and threonine-specific cdc2-inhibitory kinase (PKMYT1, Homo sapiens, UniProt Q99640) — remaining binding: 67%.
Ribosomal protein S6 kinase alpha-3, N-terminal kinase domain (RPS6KA3, Homo sapiens, UniProt P51812) — remaining binding: 100%.
It gave 79% for remaining binding (Serine/threonine-protein kinase 17B (STK17B, Homo sapiens, UniProt O94768)).
Cyclin-dependent kinase 4 (CDK4, Homo sapiens, UniProt P11802) — remaining binding: 99%.
Serine/threonine-protein kinase 3 (STK3, Homo sapiens, UniProt Q13188) — remaining binding: 97%.
For Receptor-type tyrosine-protein kinase FLT3 (FLT3, Homo sapiens, UniProt P36888, N841I): remaining binding read 86%.
For Tyrosine-protein kinase ABL1, non-phosphorylated (ABL1, Homo sapiens, UniProt P00519): remaining binding read 95%.
It gave 87% for remaining binding (cGMP-dependent protein kinase 1 (PRKG1, Homo sapiens, UniProt Q13976)).
The remaining binding was 100% (Tyrosine-protein kinase Yes (YES1, Homo sapiens, UniProt P07947)).
The remaining binding was 100% (Epithelial discoidin domain-containing receptor 1 (DDR1, Homo sapiens, UniProt Q08345)).
It gave 100% for remaining binding (Serine/threonine-protein kinase Nek10 (NEK10, Homo sapiens, UniProt Q6ZWH5)).
Ephrin type-B receptor 3 (EPHB3, Homo sapiens, UniProt P54753) — remaining binding: 100%.
For TRAF2 and NCK-interacting protein kinase (TNIK, Homo sapiens, UniProt Q9UKE5): remaining binding read 100%.
It gave 87% for remaining binding (Mitogen-activated protein kinase kinase kinase kinase 5 (MAP4K5, Homo sapiens, UniProt Q9Y4K4)).
The remaining binding was 81% (Serine/threonine-protein kinase MRCK alpha (CDC42BPA, Homo sapiens, UniProt Q5VT25)).
Serine/threonine-protein kinase PLK2 (PLK2, Homo sapiens, UniProt Q9NYY3) — remaining binding: 82%.
It gave 95% for remaining binding (Ankyrin repeat and protein kinase domain-containing protein 1 (ANKK1, Homo sapiens, UniProt Q8NFD2)).
It gave 100% for remaining binding (Receptor tyrosine-protein kinase erbB-3 (ERBB3, Homo sapiens, UniProt P21860)).
It gave 70% for remaining binding (Serine/threonine-protein kinase PRP4 homolog (PRPF4B, Homo sapiens, UniProt Q13523)).

Block 5
Variant: Q167L
Target: ABI1, truncated, D143A, DHFR fusion (Arabidopsis thaliana)
Technique: DHFR PCA, deep sequencing
Sample: yeast
Notes: methotrexate growth selection, single substitutions
Baseline: wild-type fitted maximum
Direction: higher = stronger binding
Starting sequence: PYL1, truncated, DHFR fusion (Arabidopsis thaliana); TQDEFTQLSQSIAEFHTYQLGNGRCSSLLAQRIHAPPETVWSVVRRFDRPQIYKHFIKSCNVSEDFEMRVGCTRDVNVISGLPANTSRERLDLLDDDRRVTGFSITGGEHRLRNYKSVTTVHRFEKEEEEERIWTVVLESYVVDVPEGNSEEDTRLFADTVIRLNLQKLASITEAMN
together with: (+)-ABA 0.11 µM — “relative binding score”: 26.1%.
For together with: (+)-ABA 0.39 µM: “relative binding score” read 33.2%.
together with: (+)-ABA 0 µM — “relative binding score”: 19.6%.
For together with: (+)-ABA 0.0091 µM: “relative binding score” read 17.8%.
together with: (+)-ABA 2500 µM — “relative binding score”: 92.9%.
together with: (+)-ABA 710 µM — “relative binding score”: 98.2%.

Block 6
Target: ATF5, bZIP domain (human)
Technique: DHFR protein complementation
Sample: yeast
Notes: single substitutions, most at no-binding floor
Baseline: wild-type JUN-FOS pair
Direction: higher = stronger binding
Starting sequence: JUN, bZIP domain (human); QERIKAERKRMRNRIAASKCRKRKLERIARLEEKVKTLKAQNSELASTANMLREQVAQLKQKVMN; partner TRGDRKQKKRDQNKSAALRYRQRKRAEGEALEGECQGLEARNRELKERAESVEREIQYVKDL
The binding fitness of `E33D` is reported as -1.48 natural log.
`L38P` has a binding fitness of -1.52 natural log.
The binding fitness of `I28C` is reported as -1.5 natural log.
For `A49C`, the binding fitness was -1.52 natural log.
The binding fitness of `A49W` is reported as -1.51 natural log.
`S43F` gave a binding fitness of -1.43 natural log.
`E33L` gave a binding fitness of -1.25 natural log.
`T37N` gave a binding fitness of -1.45 natural log.

Further values, each from its own experiment
With Cc1nc2nc(C)c(Cc3cccc4ccccc34)c(O)n2n1 the remaining compound was 52.7% (mouse, microsomes or S9; 2 µM, 0.5 h).
